Measurements pooled from the literature.
± marks the error that the study gave.
Organism: Escherichia coli

| Compound | test | test system | conditions | MIC |
| --- | --- | --- | --- | --- |
| CC[C@H](C)[C@H](NC(=O)[C@H](Cc1ccc(O)cc1)NC(=O)[C@@H](NC(=O)[C@@H]1CCCN1C(=O)[C@H](CCCCN)NC(=O)[C@H](CC(N)=O)NC(=O)[C@H](CC(N)=O)NC(=O)CN)C(C)C)C(=O)N1CCC[C@H]1C(=O)N[C@@H](CCC(N)=O)C(=O)N1CCC[C@H]1C(=O)N[C@@H](CCCNC(=N)N)C(=O)N1CCC[C@H]1C(=O)N1CCC[C@H]1C(=O)N[C@@H](CCCNC(=N)N)C(=O)N1CCC[C@H]1C(=O)N[C@@H](CCCNC(=N)N)C(=O)N[C@@H](CC(C)C)C(=O)O |  | JW0368 ΔsbmA | 18 h, 37 °C, 12.5% Mueller-Hinton broth | 0.384 ± 0.08 µM |
| CC[C@H](C)[C@H](N)C(=O)N[C@H](C(=O)N[C@@H](CCCCN)C(=O)N[C@@H](CCCNC(=N)N)C(=O)N[C@H](C(=O)N[C@@H](CC(C)C)C(=O)N[C@H](C(=O)N[C@@H](CCC(N)=O)C(=O)N[C@@H](CC(C)C)C(=O)N[C@@H](CCCCN)C(=O)N[C@@H](CCCCN)C(=O)N[C@@H](CC(C)C)C(=O)N[C@@H](CC(C)C)C(N)=O)[C@@H](C)CC)[C@@H](C)CC)[C@@H](C)CC |  | ATCC 25922 | 1 h, 37 °C, non-dividing cells in PBS | 12.5 µg/mL |
| CO/N=C(\C(=O)N[C@@H]1C(=O)N2C(C(=O)O)=C(COC(C)=O)CS[C@H]12)c1csc(N)n1 |  | AmpC-overproducing clinical isolate | alone without inhibitor, third isolate | 4 µg/mL |
| CC[C@H](C)[C@H](NC(=O)[C@H](Cc1ccc(O)cc1)NC(=O)[C@@H](NC(=O)[C@@H]1CCCN1C(=O)[C@H](CCCNC(=N)N)NC(=O)[C@H](CC(N)=O)NC(=O)[C@H](CC(N)=O)NC(=O)CN)C(C)C)C(=O)N1CCC[C@H]1C(=O)N[C@@H](CCC(N)=O)C(=O)N1CCC[C@H]1C(=O)N[C@@H](CCCNC(=N)N)C(=O)N1CCC[C@H]1C(=O)N1CCC[C@H]1C(=O)N[C@@H](Cc1c[nH]cn1)C(=O)N1CCC[C@H]1C(=O)N[C@@H](CCCNC(=N)N)C(=O)N[C@@H](CC(C)C)C(=O)O |  | JW0368 ΔsbmA | 18 h, 37 °C, 12.5% Mueller-Hinton broth | 0.384 ± 0.08 µM |
| CC(C)C[C@H](NC(=O)[C@H](CCCNC(=N)N)NC(=O)[C@H](CC(C)C)NC(=O)[C@@H](NC(=O)[C@H](CC(C)C)NC(=O)[C@H](Cc1c[nH]cn1)NC(=O)[C@H](CC(C)C)NC(=O)[C@@H](NC(=O)[C@H](C)N)[C@@H](C)O)C(C)C)C(=O)N[C@@H](CCCNC(=N)N)C(=O)NCC(=O)NCC(=O)O |  | DH5α | 37 °C, ≥90% viability decrease | 10 µM |
| CC[C@H](C)[C@H](N)C(=O)N[C@@H](CC(C)C)C(=O)NCC(=O)N1CCC[C@H]1C(=O)N[C@H](C(=O)N[C@@H](CC(C)C)C(=O)NCC(=O)N[C@@H](CC(C)C)C(=O)N[C@H](C(=O)N[C@@H](CO)C(=O)N[C@@H](CC(=O)O)C(=O)N[C@H](C(=O)N[C@@H](CC(C)C)C(=O)N[C@@H](CC(=O)O)C(=O)N[C@@H](CC(=O)O)C(=O)N[C@H](C(=O)N[C@@H](CC(C)C)C(=O)NCC(=O)N[C@H](C(=O)N[C@@H](CC(C)C)C(=O)N[C@@H](CS)C(=O)O)[C@@H](C)CC)C(C)C)[C@@H](C)O)C(C)C)C(C)C |  | ATCC 25922 | 24 h, 37 °C | 90 µM |
| CC[C@H](C)[C@H](NC(=O)[C@@H]1CCCN1C(=O)[C@H](CCCCN)NC(=O)[C@@H]1CCCN1C(=O)[C@@H]1CCCN1C(=O)[C@@H](NC(=O)[C@@H]1CCCN1C(=O)[C@H](CCCNC(=N)N)NC(=O)[C@@H]1CCCN1C(=O)[C@H](CCCCN)NC(=O)[C@H](Cc1ccc(O)cc1)NC(=O)[C@H](CO)NC(=O)CNC(=O)[C@H](CCCCN)NC(=O)[C@H](CC(=O)O)NC(=O)[C@@H](N)C(C)C)[C@@H](C)O)C(=O)N[C@@H](Cc1ccc(O)cc1)C(=O)N[C@@H](CC(N)=O)C(=O)N[C@@H](CCCNC(=N)N)C(=O)N[C@@H](CC(N)=O)C(=O)O |  | JW0368 ΔsbmA | 18 h, 37 °C, 12.5% Mueller-Hinton broth | 0.834 ± 0.382 µM |
| CC[C@H](C)[C@H](NC(=O)[C@H](C)NC(=O)CNC(=O)[C@H](C)NC(=O)[C@H](CCCCN)NC(=O)[C@H](CO)NC(=O)[C@H](C)NC(=O)[C@H](CCSC)NC(=O)CN)C(=O)N[C@@H](C)C(=O)NCC(=O)N[C@@H](CCCCN)C(=O)N[C@H](C(=O)N[C@@H](C)C(=O)N[C@@H](CCCCN)C(=O)N[C@H](C(=O)N[C@@H](C)C(=O)N[C@@H](CC(C)C)C(=O)N[C@@H](CCCCN)C(=O)N[C@@H](C)C(=O)N[C@@H](CC(C)C)C(N)=O)C(C)C)[C@@H](C)CC | broth microdilution | K12 | 37 °C | 25 µM |
| CC[C@H](C)[C@H](NC(=O)[C@H](CCCNC(=N)N)NC(=O)[C@@H](N)CCCNC(=N)N)C(=O)N[C@@H](CCCCN)C(=O)N1CCC[C@H]1C(=O)N[C@@H](CCCNC(=N)N)C(=O)N1CCC[C@H]1C(=O)N1CCC[C@H]1C(=O)N[C@@H](CCCNC(=N)N)C(=O)N[C@@H](CC(C)C)C(=O)N1CCC[C@H]1C(=O)N[C@@H](CCCNC(=N)N)C(=O)N1CCC[C@H]1C(=O)N[C@@H](CCCNC(=N)N)C(=O)N1CCC[C@H]1C(=O)N[C@@H](CCCCN)C(=O)O | broth microdilution | BW25113 parental, Mueller-Hinton broth | 18 h, 37 °C | 0.06 ± 0.014 µM |
| CC[C@H](C)[C@H](NC(=O)[C@H](C)N)C(=O)N[C@@H](CCCCN)C(=O)N[C@H](C(=O)N[C@@H](CCCNC(=N)N)C(=O)N[C@@H](CCCCN)C(=O)N[C@@H](CC(C)C)C(=O)N[C@@H](Cc1ccccc1)C(=O)N[C@@H](CCCCN)C(=O)N[C@@H](CCCCN)C(=O)N[C@@H](CC(C)C)C(=O)N[C@@H](CC(C)C)C(=O)N[C@@H](CCCNC(=N)N)C(N)=O)[C@@H](C)CC | broth microdilution | ATCC 25922, LB medium | 16 to 20 h, 37 °C | 50 to 100 µg/mL |
| CC[C@H](C)[C@H](NC(=O)CNC(=O)[C@H](CC(=O)O)NC(=O)[C@H](CCCNC(=N)N)NC(=O)[C@@H](NC(=O)[C@H](CC(N)=O)NC(=O)[C@H](CCC(N)=O)NC(=O)CNC(=O)[C@@H](NC(=O)[C@H](CCCCN)NC(=O)[C@H](CCC(=O)O)NC(=O)[C@@H](NC(=O)[C@H](CCCCN)NC(=O)[C@H](CCCCN)NC(=O)[C@H](Cc1ccccc1)NC(=O)[C@H](CC(C)C)NC(=O)[C@H](CCCCN)NC(=O)[C@H](Cc1c[nH]c2ccccc12)NC(=O)[C@@H](N)CCCCN)[C@@H](C)CC)C(C)C)[C@@H](C)CC)C(=O)N[C@H](C(=O)N[C@@H](CCCCN)C(=O)N[C@@H](C)C(=O)NCC(=O)N1CCC[C@H]1C(=O)N[C@@H](C)C(=O)N[C@H](C(=O)N[C@@H](C)C(=O)N[C@H](C(=O)N[C@H](C(=O)NCC(=O)N[C@@H](CCC(N)=O)C(=O)N[C@@H](C)C(=O)N[C@H](C(=O)N[C@@H](CCC(N)=O)C(=O)N[C@H](C(=O)N[C@@H](C)C(=O)N[C@@H](CCCCN)C(N)=O)[C@@H](C)CC)[C@@H](C)O)C(C)C)C(C)C)C(C)C)[C@@H](C)CC | bacterial growth | DH5α | 37 °C | 3 µM |
| CC[C@H](C)[C@H](NC(=O)CN)C(=O)N[C@@H](CCCCN)C(=O)N[C@@H](Cc1ccccc1)C(=O)N[C@@H](Cc1ccccc1)C(=O)N[C@@H](CC(C)C)C(=O)N[C@@H](CCCCN)C(=O)N[C@@H](CCCCN)C(=O)N[C@@H](CC(C)C)C(=O)N[C@@H](CCCCN)C(=O)N[C@@H](CCCCN)C(=O)N[C@@H](Cc1c[nH]cn1)C(N)=O |  | ATCC 25922 | 1 h, 37 °C, dividing cells in LB | ≥ 100 µg/mL |
| CC[C@H](C)[C@H](NC(=O)[C@@H]1CCCN1C(=O)[C@H](CCCCN)NC(=O)[C@@H]1CCCN1C(=O)[C@@H]1CCCN1C(=O)[C@@H](NC(=O)[C@@H]1CCCN1C(=O)[C@H](CCCNC(=N)N)NC(=O)[C@@H]1CCCN1C(=O)[C@H](CCCNC(=N)N)NC(=O)[C@H](Cc1ccc(O)cc1)NC(=O)[C@H](CO)NC(=O)CNC(=O)[C@H](CCCCN)NC(=O)[C@H](CC(=O)O)NC(=O)[C@@H](N)C(C)C)[C@@H](C)O)C(=O)N[C@@H](Cc1ccc(O)cc1)C(=O)N[C@@H](CC(N)=O)C(=O)N[C@@H](CCCNC(=N)N)C(=O)N[C@@H](CC(N)=O)C(=O)O | broth microdilution | BW25113, 20% M9 medium |  | 0.3 ± 0.07 µM |
| CC[C@H](C)[C@H](NC(=O)CN)C(=O)N[C@@H](Cc1c[nH]c2ccccc12)C(=O)N[C@@H](CC(=O)O)C(=O)N[C@H](C(=O)N[C@H](C(=O)N[C@@H](CCCCN)C(=O)N[C@@H](CO)C(=O)N[C@@H](CCSC)C(=O)NCC(=O)N[C@@H](CCCCN)C(=O)N[C@H](C(=O)N[C@@H](Cc1ccccc1)C(=O)N[C@@H](C)C(=O)NCC(=O)N[C@@H](CCCCN)C(=O)N[C@H](C(=O)N[C@@H](CC(C)C)C(=O)N[C@@H](CCC(N)=O)C(=O)N[C@@H](CC(N)=O)C(=O)N[C@@H](CC(C)C)C(N)=O)[C@@H](C)CC)C(C)C)[C@@H](C)CC)[C@@H](C)O | broth microdilution | K12 | 37 °C | 25 µM |
| CC(C)C[C@H](NC(=O)[C@H](CC(C)C)NC(=O)[C@H](CCCCN)NC(=O)[C@H](CC(C)C)NC(=O)[C@H](CC(C)C)NC(=O)[C@H](CCCCN)NC(=O)[C@H](CCCCN)NC(=O)[C@H](CC(C)C)NC(=O)[C@H](CC(C)C)NC(=O)[C@H](CCCCN)NC(=O)[C@H](CC(C)C)NC(=O)[C@H](CC(C)C)NC(=O)[C@@H](N)CCCCN)C(=O)N[C@@H](CCCCN)C(N)=O |  | ATCC 25922, CAMHB | 18 h, 37 °C | 19 µM |
| CC(C)C[C@H](NC(=O)[C@H](Cc1c[nH]c2ccccc12)NC(=O)[C@H](CCCNC(=N)N)NC(=O)[C@H](CC(C)C)NC(=O)[C@H](CCCNC(=N)N)NC(=O)[C@H](Cc1c[nH]c2ccccc12)NC(=O)[C@H](Cc1c[nH]c2ccccc12)NC(=O)[C@H](CC(C)C)NC(=O)[C@H](CCCCN)NC(=O)[C@H](Cc1c[nH]c2ccccc12)NC(=O)[C@@H](NC(=O)[C@@H](N)CC(C)C)C(C)C)C(=O)N[C@@H](CCCCN)C(N)=O | broth microdilution | ATCC 25922, LB medium | 16 to 20 h, 37 °C | 100 µg/mL |
| CC[C@H](C)[C@H](NC(=O)[C@@H]1CCCN1C(=O)[C@H](CCCNC(=N)N)NC(=O)[C@@H]1CCCN1C(=O)[C@H](Cc1c[nH]cn1)NC(=O)[C@H](CO)NC(=O)[C@@H](NC(=O)[C@@H]1CCCN1C(=O)[C@H](CCCNC(=N)N)NC(=O)[C@@H]1CCCN1C(=O)[C@H](CO)NC(=O)[C@H](Cc1ccc(O)cc1)NC(=O)[C@@H]1CCCN1C(=O)[C@H](CCCNC(=N)N)NC(=O)[C@@H]1CCCN1C(=O)[C@H](CCCCN)NC(=O)CN)[C@@H](C)O)C(=O)N[C@@H](CCCNC(=N)N)C(=O)N[C@H](C(=O)O)C(C)C | broth microdilution | K12 | 37 °C | > 100 µM |
| CC(C)[C@H](N)C(=O)N[C@@H](CS)C(=O)N1CCC[C@H]1C(=O)N[C@@H](Cc1c[nH]cn1)C(=O)N[C@@H](CCCNC(=N)N)C(=O)N[C@@H](CS)C(=O)O | broth microdilution | MTCC 443 | 37 °C | 40 µg/mL |

For quick reference, copied from above:
| Compound | test | test system | conditions | MIC |
| --- | --- | --- | --- | --- |
| CC[C@H](C)[C@H](NC(=O)CN)C(=O)N[C@@H](CCCCN)C(=O)N[C@@H](Cc1ccccc1)C(=O)N[C@@H](Cc1ccccc1)C(=O)N[C@@H](CC(C)C)C(=O)N[C@@H](CCCCN)C(=O)N[C@@H](CCCCN)C(=O)N[C@@H](CC(C)C)C(=O)N[C@@H](CCCCN)C(=O)N[C@@H](CCCCN)C(=O)N[C@@H](Cc1c[nH]cn1)C(N)=O |  | ATCC 25922 | 1 h, 37 °C, dividing cells in LB | ≥ 100 µg/mL |
| CC[C@H](C)[C@H](NC(=O)[C@@H]1CCCN1C(=O)[C@H](CCCCN)NC(=O)[C@@H]1CCCN1C(=O)[C@@H]1CCCN1C(=O)[C@@H](NC(=O)[C@@H]1CCCN1C(=O)[C@H](CCCNC(=N)N)NC(=O)[C@@H]1CCCN1C(=O)[C@H](CCCNC(=N)N)NC(=O)[C@H](Cc1ccc(O)cc1)NC(=O)[C@H](CO)NC(=O)CNC(=O)[C@H](CCCCN)NC(=O)[C@H](CC(=O)O)NC(=O)[C@@H](N)C(C)C)[C@@H](C)O)C(=O)N[C@@H](Cc1ccc(O)cc1)C(=O)N[C@@H](CC(N)=O)C(=O)N[C@@H](CCCNC(=N)N)C(=O)N[C@@H](CC(N)=O)C(=O)O | broth microdilution | BW25113, 20% M9 medium |  | 0.3 ± 0.07 µM |
